Results gathered from unrelated publications.
Every numbered part comes from another study and shows a few of its results, in no order.

Set 1
Substance: deucravacitinib
Technique: multiple ascending dose
Species: healthy human
Route: oral
4 mg twice daily — “subjects with oropharyngeal pain”: 11.1%.
For 12 mg twice daily: “subjects with oropharyngeal pain” read 11.1%.
2 mg twice daily — “subjects with oropharyngeal pain”: 11.1%.

Single results of other studies
`chicoric acid`: “Papp apical to basolateral” “increased” (IPEC-J2 monolayer; added: thapsigargin 10 µM; baseline: without inhibitor).
The C12 of `maraviroc` is reported as 63.1 ng/mL (white CYP3A5 poor metabolizers, plasma; 300 mg twice daily).
`semaglutide`: “participants with adverse events” 3.1% (refers to: action taken missing; human, safety analysis set; concentration not given, 32 weeks, run-in).
